Assay results pooled from the literature.
Protocols differ between the studies behind these lines. “And” joins repeats or separate records; there may be more than shown. Numbers after ± are the reported error.

| Structure (SMILES) | target or system | assay | system | conditions | how to read | quantity | result |
| --- | --- | --- | --- | --- | --- | --- | --- |
| CC(C)(c1cc(Br)c(O)c(Br)c1)c1cc(Br)c(O)c(Br)c1 |  | ultrafiltration | cow milk whey | 20 nM nominal in whole milk |  | dose fraction in permeate | 7.16% |
| CC(C)C[C@H](NC(=O)[C@H](Cc1ccc(O)cc1)NC(=O)[C@H](Cc1c[nH]cn1)NC(=O)[C@H](CC(=O)O)NC(=O)[C@H](CC(C)C)NC(=O)[C@H](C)NC(=O)[C@H](CC(C)C)NC(=O)CNC(=O)CNC(=O)[C@@H](NC(=O)[C@@H](NC(=O)[C@H](CCCCN)NC(=O)CNC(=O)[C@@H](NC(=O)[C@H](CCCCN)NC(=O)[C@H](CCCCN)NC(=O)[C@H](C)NC(=O)[C@H](CCCCN)NC(=O)[C@H](CCCNC(=N)N)NC(=O)[C@H](Cc1ccccc1)NC(=O)[C@@H](NC(=O)[C@H](CO)NC(=O)[C@H](CCCCN)NC(=O)[C@H](Cc1c[nH]c2ccccc12)NC(=O)CN)C(C)C)C(C)C)[C@@H](C)O)C(C)C)C(N)=O |  |  | zebrafish embryos 4 hpf, E3 medium | 1 h |  | acute toxic concentration | 5 µM |
| Cc1ccc(NC2(C)CN(C)C2)cc1C(=O)N[C@H](C)c1cc(-c2cnn(C)c2)nc2ccccc12 | Vero E6 |  |  | 7.812 µM |  | viability | 88.2% and 90.2% and 89.2% |
| CCOc1ccccc1-n1c(CN2CCNCC2)nc2ccccc2c1=O |  |  | C57BL/6 mouse, male, plasma | oral, 6 mg/kg |  | Cmax | 1390 nM |
| CCCCCCCCCCCC(=O)C(C)C(=O)N1CCC[C@H]1C(=O)NC(C)(C)C(=O)NC(C)(C)C(=O)NC(C)(C)C(=O)N[C@](C)(CC)C(=O)NCCC(=O)N[C@@H](C)C(=O)N[C@](C)(CC)C(=O)N[C@@H](C)C(=O)N[C@@H](CC(C)C)C(=O)N[C@](C)(CC)C(=O)NCCC(=O)N[C@@H](C)C(=O)N[C@](C)(CC)C(=O)NCCC(=O)N[C@@H](C)C(=O)NC(C)(C)C(=O)NC(C)(C)C(=O)NC(C)(C)C(=O)N[C@@H](C)C(=O)N[C@@H](CC(=O)O)C(=O)O (stereo partly drawn) |  | LC-MS | 50% pooled human serum | 40 µM, 20 min, pH 7.5, 37 °C | baseline: 0 h | remaining intact peptide | 72.7% and 66.2% and 65.8% |
| CC(C)C[C@H](NC(=O)[C@H](CCCNC(=N)N)NC(=O)[C@H](Cc1ccccc1)NC(=O)[C@H](Cc1ccccc1)NC(=O)[C@@H](N)[C@@H](C)O)C(=O)N[C@@H](Cc1ccccc1)C(=O)N[C@@H](CC(N)=O)C(=O)N[C@@H](CCCNC(=N)N)C(=O)N[C@@H](C)C(=O)N[C@@H](CCCCN)C(=O)N[C@@H](CCCNC(=N)N)C(=O)N[C@@H](Cc1c[nH]cn1)C(=O)N[C@@H](Cc1c[nH]cn1)C(=O)NCC(=O)N[C@@H](Cc1ccc(O)cc1)C(=O)N[C@@H](CCCCN)C(=O)N[C@@H](CCCNC(=N)N)C(=O)N[C@@H](CCCCN)C(=O)N[C@@H](Cc1ccccc1)C(=O)N[C@@H](Cc1c[nH]cn1)C(=O)O |  | HPLC-UV | human saliva | 0.5 h, 37 °C, with: initial 1 mg/mL |  | peptide concentration | 0.953 mg/mL |
| O=C1NC2(CC2)COc2ncc(F)cc2[C@H]2COCCN2c2ccn3ncc1c3n2 |  |  | Sprague-Dawley rat, male, testes | oral, 5 mg/kg/day, 4 weeks dosing, end of recovery |  | organ-to-body weight ratio | 0.645 ± 0.05% |
| CC[C@H](C)[C@@H]1NC(=O)[C@H](Cc2ccc(O)cc2)NC(=O)CCCSC[C@@H](C(=O)N(CC(=O)N[C@@H](CC(C)C)C(=O)NCC(N)=O)Cc2ccc(F)cc2)NC(=O)[C@H](CC(N)=O)NC(=O)[C@H](CCC(N)=O)NC1=O |  |  | human | intranasal, 200 µg repeated doses |  | deaths | 0% |
| CC[C@H](C)[C@H](NC(=O)[C@H](CCCCN)NC(=O)CNC(=O)[C@H](CC(C)C)NC(=O)[C@H](Cc1ccccc1)NC(=O)[C@H](CCCCN)NC(=O)[C@H](CO)NC(=O)[C@H](Cc1ccccc1)NC(=O)[C@H](Cc1c[nH]c2ccccc12)NC(=O)[C@H](CCC(N)=O)NC(=O)[C@@H](NC(=O)[C@H](Cc1ccccc1)NC(=O)CCCCCNC(=O)CN1CCN(CC(=O)O)CCN(CC(=O)O)CCN(CC(=O)O)CC1)C(C)C)C(=O)N[C@@H](CCC(=O)O)C(=O)N1CCC[C@H]1C(=O)N[C@@H](CC(=O)O)C(=O)N[C@H](C(=O)N[C@@H](CO)C(=O)N[C@@H](CCC(N)=O)C(=O)N[C@H](C(=O)N[C@@H](CCC(N)=O)C(=O)N[C@@H](CC(=O)O)C(=O)N1CCC[C@H]1C(=O)N[C@@H](CC(N)=O)C(=O)N[C@@H](CC(=O)O)C(=O)N[C@@H](CCC(N)=O)C(=O)N[C@@H](Cc1ccc(O)cc1)C(=O)N[C@@H](CCC(=O)O)C(=O)N1CCC[C@H]1C(=O)N[C@@H](Cc1ccccc1)C(=O)O)C(C)C)C(C)C [copper-64 labelled] |  |  | C57BL/6 mice, male, tumour-free, kidneys | 4 h |  | tissue uptake | 54.2 ± 12.6 %ID/g |
| CC(C)[C@H](NC(=O)[C@@H](NC(=O)[C@H](CCCNC(=N)N)NC(=O)[C@H](CCCNC(=N)N)NC(=O)[C@H](CCCNC(=N)N)NC(=O)[C@H](CCC(N)=O)NC(=O)[C@H](CCCNC(=N)N)NC(=O)[C@H](CCCNC(=N)N)NC(=O)[C@H](CCCCN)NC(=O)[C@H](CCCCN)NC(=O)[C@H](CCCNC(=N)N)NC(=O)CN)[C@@H](C)O)C(=O)N[C@H](C(=O)N[C@@H](CO)C(=O)N1CCC[C@H]1C(=O)O)[C@@H](C)O |  |  | ICR mice, male, brain | intranasal, 20 mg/kg daily, 4 weeks |  | organ weight | 0.547 ± 0.051 g |
| O=C(O)/C=C\c1ccc2occc2c1O[C@@H]1O[C@H](CO)[C@@H](O)[C@H](O)[C@H]1O |  | post-procedure stability | rat plasma | 1000 ng/mL, 1 h, room temperature |  | accuracy | 84.8% |
| CC(C)=CCC/C(C)=C\CCn1cc(CC(P(=O)(O)O)P(=O)(O)O)nn1 |  | PAMPA | phosphate buffer | 5 µg/mL, 5 h, room temperature |  | Papp | 0.086 ± 0.007 ×10⁻⁶ cm/s |
| Cc1ccc(OCCN(C)C)cc1C(=O)N[C@H](C)c1cc(-c2cnn(C3CNC3)c2)nc2ccccc12 | Vero E6 |  |  | 31.25 µM |  | viability | 106% and 100% |
| CC(C)[C@@H]1NC(=O)CNC(=O)[C@H](CC(N)=O)NC(=O)[C@H](CCCNC(=N)N)NC(=O)[C@H](Cc2ccc(O)cc2)NC(=O)[C@H](C(C)C)NC(=O)[C@@H](NC(=O)[C@@H](NC(=O)[C@H](CC(N)=O)NC(=O)[C@H](Cc2c[nH]c3ccccc23)NC(=O)[C@H](C)NC(=O)[C@H](Cc2ccccc2)NC(=O)CNC(=O)[C@H](CCCCN)NC(=O)[C@H](Cc2ccccc2)NC(=O)[C@H](Cc2ccccc2)NC(=O)[C@H](CCCCN)NC(=O)OCC2c3ccccc3-c3ccccc32)C(C)C)CSSC[C@@H](C(=O)N[C@@H](Cc2c[nH]cn2)C(=O)N[C@@H](CCCNC(=N)N)C(=O)N[C@@H](CCCNC(=N)N)C(=O)N[C@@H](C)C(=O)N[C@@H](CC(N)=O)C(N)=O)NC(=O)[C@H](C(C)C)NC(=O)[C@H](CCCNC(=N)N)NC1=O |  | HPLC | mouse kidney homogenate 50 mg/mL | 8.00 h, 37 °C |  | peptide remaining | 43.5% and 51.3% and 47.4% |
| CCN(CCCCOc1ccc(CCC(=O)N2CCC(Cc3ccccc3)CC2)cc1OC)Cc1ccccc1 |  |  | Sprague-Dawley rats, both sexes, urine | oral gavage, 25 mg/kg, 6 to 12 h |  | excreted amount | 961 ± 159 ng |
